Measurements collected from several papers.
Method: steady-state kinetics
B1: PduO F112A (Limosilactobacillus reuteri, UniProt Q50EJ2); chain MKIYTKNGDKGQTRIIGKQILYKNDPRVAAYGEVDELNSWVGYTKSLINSHTQVLSNELEEIQQLLFDCGHDLATPADDERHSFKFKQEQPTVWLEEKIDNYTQVVPAVKKAILPGGTQLASALHVARTITRRAERQIVQLMREEQINQDVLIFINRLSDYFFAAARYANYLEQQPDMLYRNSKDVFR
B2: UGT88A1 (Arabidopsis thaliana, UniProt Q9LK73); chain MGEEAIVLYPAPPIGHLVSMVELGKTILSKNPSLSIHIILVPPPYQPESTATYISSVSSSFPSITFHHLPAVTPYSSSSTSRHHHESLLLEILCFSNPSVHRTLFSLSRNFNVRAMIIDFFCTAVLDITADFTFPVYFFYTSGAACLAFSFYLPTIDETTPGKNLKDIPTVHIPGVPPMKGSDMPKAVLERDDEVYDVFIMFGKQLSKSSGIIINTFDALENRAIKAITEELCFRNIYPIGPLIVNGRIEDRNDNKAVSCLNWLDSQPEKSVVFLCFGSLGLFSKEQVIEIAVGLEKSGQRFLWVVRNPPELEKTELDLKSLLPEGFLSRTEDKGMVVKSWAPQVPVLNHKAVGGFVTHCGWNSILEAVCAGVPMVAWPLYAEQRFNRVMIVDEIKIAISMNESETGFVSSTEVEKRVQEIIGECPVRERTMAMKNAAELALTETGSSHTALTTLLQSWSPK
B3: putA E1012A (Rhodobacter capsulatus, UniProt D5AN87); chain MTDLSALGPKAKFAPEAEVLQALVAQAALPQPQLDRIAARGADLVARIRAEAKPSLMEHFLAQYGLSTREGVALMCLAEAMLRVPDTATIDALIEDKIAPSDWGKHLGTAASSLVNASTWALMLTGKVLDDGAGGIAGTLRGAMRRLGEPVIRAAVGQAMREMGRQFVLGETIEKALERAEKREAEGYTFSYDMLGEAALTAADAERYRLAYAQAITAIGKAATRGSIAANPGISIKLSALHPRYEVAQEARVMAELVPVVRDLARAAARAGIALHIDAEEQDRLALSLRVMAAVIADPETAGWEGFGAVVQAYGKRAGAAIDALAAMARAAGRRINIRLVKGAYWDAEMKRAQVEGHPGFPLFTSKTGTDVAYICLAAKLFGLNDCIYPQFATHNAHTVAAVLEMAAGRPFEFQRLHGMGARLHDIVLRETGGRCRIYAPVGAHRDLLAYLVRRLLENGANSSFVNQIVNESVPPAEVAACPFAALPTARAPRGLLAPADLFGAGRVNAQGFDLSDPEVLARIEAARDVTLPDAAPIVAGPVSGTLRPVRNPATGAVVAQVTEADAATVALALDAAQVWSAPAATRAAVLCRAADLYEENFGPIFAALAQEAGKTLGDAVSELREAVDFLRYYAAEGAADTRPPRGAVVAISPWNFPLAIFTGQVAAALMAGNAVLAKPAEQTPIIAALAVRLLHQAGVPETALQLLPGDGPTVGAALTRDPRVAGVVFTGSTETAQIIARAMAAHLAPGTPLIAETGGLNAMVVDSTALPEQAVRDVVASAFRSAGQRCSALRCLYVQDDIAPHLIGMLKGAMEELVSGDPARLSTDVGPVIDAEAKAGIETYLAANKARILHRSTAPEGGHFVAPALLQVGGIADLEREIFGPVLHLATFAAEDLPAVIAAINARGYGLTFGLHSRIDARVETVAETIRAGNIYVNRNQIGAVVGSQPFGGEGLSGTGPKAGGPLYLNRFYAPEPVVAVGGWTEAATPILPEARETQLDEIFLPGPTGALNRLTRHQRGPILCLGPGAEAASAQAAAVVALGGQAVQASGAVSPKALETLTPLAGVLWWGAAEMGRAYAQALAVRPGPLVPLITAKPDLAHVAHERHLCVDTTAAGGNAALLAG
B4: cyc1 A236G (Streptomyces coelicolor, UniProt Q9K499); chain MHAFPHGTTATPTAIAVPPSLRLPVIEAAFPRQLHPYWPKLQETTRTWLLEKRLMPADKVEEYADGLCYTDLMAGYYLGAPDEVLQAIADYSAWFFVWDDRHDRDIVHGRAGAWRRLRGLLHTALDSPGDHLHHEDTLVAGFADSVRRLYAFLPATWNARFARHFHTVIEAYDREFHNRTRGIVPGVEEYLELRRLTFAHWIWTDLLEPSSGCELPDAVRKHPAYRRAALLSQEFGAWYNDLCSLPKEIAGDEVHNLGISLITHHSLTLEEAIGEVRRRVEECITEFLAVERDALRFADELADGTVRGKELSGAVRANVGNMRNWFSSVYWFHHESGRYMVDSWDDRSTPPYVNNEAAGEK
B5: enzyme R116A (Acetivibrio thermocellus, UniProt A3DJ38); chain MKLTIPELSLVVLIGSSGSGKSTFAKKHFKPTEVISSDFCRGLVSDDENDQTVTGAAFDVLHYIVSKRLQLGKLTVVDATNVQESARKPLIEIAKDYHCFPVAVVFNLPEKVCQEANKNRTDRQVEEYVIRKHTQQLKKSIKGLQREGFRYVYILNSPEEVEEVVFERQP
B6: protein G96D/P94L (Streptomyces coelicolor, UniProt P16544); chain MATQDSEVALVTGATSGIGLEIARRLGKEGLRVFVCARGEEGLRTTLKELREAGVEADGRTCDVRSVPEIEALVAAVVERYGPVDVLVNNAGRLGDGATAELADELWLDVVETNLTGVFRVTKQVLKAGGMLERGTGRIVNIASTGGKQGVVHAAPYSASKHGVVGFTKALGLELARTGITVNAVCPGFVETPMAASVREHYSDIWEVSTEEAFDRITARVPIGRYVQPSEVAEMVAYLIGPGAAAVTAQALNVCGGLGNY
B7: enzyme (Bacillus pumilus, UniProt A8FFI9); chain EARSIAWSVDEFFKNREGTFVIQEVKEKSPWVYNKKRAKERFAPQSTFKVANALIGLQTGAVRDEYDIKYWDGVKREIDNWNRDHTLGSGMRDSVVWYYQAMARDIGEERMNHWVKAIHYGNKDISGGIDQFWLSSTLRISPIEQVRFLKQLYEETLPFDLKNMRTVKRMMVQEEEKHATLYGKTGSGSDIGWYVGFIKHEHKTYILATNIKGTGIEAKDITYRILKKYHLMEASV
B8: UGT1A9 (Homo sapiens, UniProt O60656); chain GKLLVVPMDGSHWFTMRSVVEKLILRGHEVVVVMPEVSWQLGRSLNCTVKTYSTSYTLEDLDREFKAFAHAQWKAQVRSIYSLLMGSYNDIFDLFFSNCRSLFKDKKLVEYLKESSFDAVFLDPFDNCGLIVAKYFSLPSVVFARGILCHYLEEGAQCPAPLSYVPRILLGFSDAMTFKERVRNHIMHLEEHLLCHRFFKNALEIASEILQTPVTEYDLYSHTSIWLLRTDFVLDYPKPVMPNMIFIGGINCHQGKPLPMEFEAYINASGEHGIVVFSLGSMVSEIPEKKAMAIADALGKIPQTVLWRYTGTRPSNLANNTILVKWLPQNDLLGHPMTRAFITHAGSHGVYESICNGVPMVMMPLFGDQMDNAKRMETKGAGVTLNVLEMTSEDLENALKAVINDKSYKENIMRLSSLHKDRPVEPLDLAVFWVEFVMRHKGAPHLRPAAHDLTWYQYHSLDVIGFLLAVVLTVAFITFKCCAYGYRKCLGKKGRVKKAHKSKTH
Chain of UniProt Q9LQL2 (whole entry, looked up): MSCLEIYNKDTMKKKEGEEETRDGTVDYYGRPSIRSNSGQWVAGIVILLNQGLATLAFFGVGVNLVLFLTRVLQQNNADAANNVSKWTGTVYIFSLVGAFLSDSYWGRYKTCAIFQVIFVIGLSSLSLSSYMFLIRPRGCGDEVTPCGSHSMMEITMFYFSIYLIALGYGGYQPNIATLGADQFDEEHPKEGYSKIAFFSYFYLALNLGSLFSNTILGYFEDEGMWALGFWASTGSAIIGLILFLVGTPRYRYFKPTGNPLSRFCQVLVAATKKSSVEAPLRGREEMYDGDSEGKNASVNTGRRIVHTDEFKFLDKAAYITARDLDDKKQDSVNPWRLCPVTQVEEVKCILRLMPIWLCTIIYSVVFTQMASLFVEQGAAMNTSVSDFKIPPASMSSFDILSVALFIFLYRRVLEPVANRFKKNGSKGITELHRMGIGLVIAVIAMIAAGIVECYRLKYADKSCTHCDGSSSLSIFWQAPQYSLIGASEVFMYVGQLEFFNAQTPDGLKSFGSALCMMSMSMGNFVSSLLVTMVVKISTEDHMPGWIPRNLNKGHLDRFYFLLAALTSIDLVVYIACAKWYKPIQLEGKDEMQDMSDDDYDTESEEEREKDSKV
Chain of UniProt P10724 (whole entry, looked up): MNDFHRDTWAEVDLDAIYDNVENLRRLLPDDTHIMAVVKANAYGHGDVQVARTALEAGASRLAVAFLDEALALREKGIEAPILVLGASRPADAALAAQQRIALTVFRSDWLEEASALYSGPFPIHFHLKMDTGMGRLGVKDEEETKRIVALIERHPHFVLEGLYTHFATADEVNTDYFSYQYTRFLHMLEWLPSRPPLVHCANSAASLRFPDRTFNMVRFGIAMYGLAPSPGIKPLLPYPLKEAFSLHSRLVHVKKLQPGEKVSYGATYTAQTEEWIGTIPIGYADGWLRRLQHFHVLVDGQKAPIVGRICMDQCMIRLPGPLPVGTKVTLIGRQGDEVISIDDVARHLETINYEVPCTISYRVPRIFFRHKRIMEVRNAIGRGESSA

WlbA (Thermus thermophilus, UniProt Q72KX8)
Km (O=C(O)CCC(=O)C(=O)O; pH 8.5, 25 °C, with: enzyme-bound NAD(H)): 2350 µM

B1 (PduO F112A)
Km (Nc1ncnc2c1ncn2[C@@H]1O[C@H](COP(=O)(O)OP(=O)(O)OP(=O)(O)O)[C@@H](O)[C@H]1O; pH 8, 37 °C, anoxic, with: cob(I)alamin): 34.6 µM

B2 (UGT88A1)
Km (O=c1c(O)c(-c2ccc(O)c(O)c2)oc2cc(O)cc(O)c12; pH 6.8, 37 °C, with: UDP-glucose): 360 µM

B3 (putA E1012A)
Km (O=C(O)[C@@H]1CCCN1; pH 8, 23 °C): 15300 µM

B4 (cyc1 A236G)
Km (CC(C)=CCC/C(C)=C/CC/C(C)=C/CO[P@@](=O)(O)OP(=O)(O)O; pH 6.5, 30 °C, with: MgCl2 10 mM): 0.45 µM

alanine racemase (Geobacillus stearothermophilus, UniProt P10724)
Km (C[C@@H](N)C(=O)O; pH 9, room temperature, with: NAD+ 10 mM): 2200 µM

enzyme (Arabidopsis thaliana, UniProt Q9LQL2)
Km (O=C(O)CCCc1c[nH]c2ccccc12; pH 5.8, 25 °C, not purified): 11 µM

B5 (enzyme R116A)
Km (Nc1ncnc2c1ncn2[C@@H]1O[C@H](COP(=O)(O)OP(=O)(O)OP(=O)(O)O)[C@@H](O)[C@H]1O; pH 7, 45 °C): 40 µM

B6 (protein G96D/P94L)
Km (O[C@H]1CCCc2ccccc21; pH 7.4, phosphate 400 mM, NADPH 250 µM printed, with: NADP+, reverse reaction): 10900 µM

alanine aminopeptidase (Neisseria meningitidis, UniProt Q9JYV4)
Km (NC(=O)Cc1cc(=O)oc2cc(NC(=O)[C@@H](N)CC(=O)OCc3ccccc3)ccc12; pH 7.5, 37 °C): 117 µM

B7 (enzyme)
Km (C[C@@H](O)[C@H]1C(=O)N2C(C(=O)O)=C(S[C@@H]3CN[C@H](CNS(N)(=O)=O)C3)[C@H](C)[C@H]12; pH 7): 4.1 µM

B8 (UGT1A9)
Km (Cc1cc(=O)oc2cc(O)ccc12; pH 7.4, 37 °C): 12 µM

Excerpt of the above:
alanine racemase (Geobacillus stearothermophilus, UniProt P10724)
Km (C[C@@H](N)C(=O)O; pH 9, room temperature, with: NAD+ 10 mM): 2200 µM
